Literature values that unrelated publications cite.
Each line is one published result; not all experiments were run side by side. Numbers after ± are the reported error.
UniProt P50406, sequence (whole entry, looked up): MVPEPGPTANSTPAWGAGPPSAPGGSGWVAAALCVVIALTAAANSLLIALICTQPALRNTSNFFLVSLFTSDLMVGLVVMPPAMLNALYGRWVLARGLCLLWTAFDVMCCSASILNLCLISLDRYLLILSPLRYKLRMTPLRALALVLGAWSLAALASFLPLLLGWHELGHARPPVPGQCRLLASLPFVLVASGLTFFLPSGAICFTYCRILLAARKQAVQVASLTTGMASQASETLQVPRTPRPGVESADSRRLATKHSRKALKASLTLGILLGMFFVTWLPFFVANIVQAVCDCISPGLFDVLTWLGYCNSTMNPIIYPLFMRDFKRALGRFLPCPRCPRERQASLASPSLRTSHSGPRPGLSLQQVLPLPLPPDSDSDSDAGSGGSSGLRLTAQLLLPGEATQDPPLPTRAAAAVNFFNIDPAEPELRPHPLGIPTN
UniProt Q9JI35, sequence (whole entry, looked up): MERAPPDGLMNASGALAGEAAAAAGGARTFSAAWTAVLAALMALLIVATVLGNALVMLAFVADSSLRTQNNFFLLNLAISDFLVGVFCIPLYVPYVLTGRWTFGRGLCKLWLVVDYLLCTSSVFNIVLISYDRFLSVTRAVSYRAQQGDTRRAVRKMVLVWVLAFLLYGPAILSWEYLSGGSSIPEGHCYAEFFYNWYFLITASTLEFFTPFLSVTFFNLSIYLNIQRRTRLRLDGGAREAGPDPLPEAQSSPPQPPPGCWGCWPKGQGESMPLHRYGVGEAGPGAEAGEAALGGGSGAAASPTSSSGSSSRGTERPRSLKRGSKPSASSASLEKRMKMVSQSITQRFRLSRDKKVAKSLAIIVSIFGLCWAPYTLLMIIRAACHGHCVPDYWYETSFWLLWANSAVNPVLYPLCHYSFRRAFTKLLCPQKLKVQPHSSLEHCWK

Molecule = O=C1Cc2ccccc2C(=O)N1O; target = HIV-1 reverse transcriptase RNase H; assay = enzyme activity; quantity = IC50; value = 5.9 µM
Molecule = O=C(O)c1ccc2cc(-c3ccc(O)c(C45CC6CC(CC(C6)C4)C5)c3)ccc2c1; target = CYP26A1; assay = enzyme activity, inhibitor; conditions = added: 9-cis-retinoic acid; quantity = IC50; value = 0.04 µM
Molecule = Oc1cc(Oc2cc(Br)c(Br)cc2Br)c(Br)cc1Br; target = iodothyronine deiodinase 1 (human); assay = enzyme activity, inhibitor; test system = pooled human liver microsomes; quantity = IC50; value = 0.4 µM
Molecule = O=C1C(O)=C([C@H]2CC[C@H](c3ccc(Cl)cc3)CC2)C(=O)c2ccccc21; target = human dihydroorotate dehydrogenase; assay = inhibitor; quantity = IC50; value = 14.5 µM
Molecule = C=CCN(CC=C)CCc1c[nH]c2ccc(OC)cc12; target = Histamine H3 receptor (Cavia porcellus, UniProt Q9JI35); quantity = Ki; value = 1.71 µM
Molecule = O=[P@]1(S)OC[C@H]2O[C@@H](n3cnc4cc(Cl)c(Cl)cc43)[C@H](O)[C@@H]2O1; target = PDE6; assay = cyclic nucleotide hydrolysis, substrate or inhibitor, isothermal titration calorimetry; quantity = Km or Ki; value = 24.5 µM
Molecule = cilengitide; target = integrin αVβ3, human; quantity = IC50; value = 0.003 µM
Molecule = O=C(Cc1ccc(C(F)(F)F)cc1C(F)(F)F)N[C@@H]1N=C(c2ccccc2)c2ccccc2N(CC(F)(F)F)C1=O; target = IKs potassium current; assay = ion current, inhibitor; quantity = IC50; value = 0.027 µM
Molecule = NC(=O)[C@@H]1CC[C@@H]2CN1C(=O)N2OS(=O)(=O)O; target = PBP4; conditions = highest tested 50 µM; quantity = IC50; value = > 50 µM
Molecule = NC(CC(=O)Nc1ccc2c(c1)Cc1cc(F)ccc1-2)C(=O)O (stereo not shown); target = EAAT2; assay = D-aspartate uptake, inhibitor; test system = COS-17.2 expressing EAAT2; conditions = added: [3H]D-aspartic acid; quantity = IC50; value = 0.003 µM
Molecule = Nc1ncnc2c1nc(Br)n2C1OC2COP(O)(=S)OC2C1O (stereo not shown); target = PDE5; assay = cyclic nucleotide hydrolysis, substrate or inhibitor, isothermal titration calorimetry; quantity = Km or Ki; value = 94.7 µM
Molecule = CC(C)CCCCC/C=C/C=C/C(=O)N[C@H](C(=O)N[C@H]1C[C@@H](O)CCNC(=O)/C=C/[C@H](C)NC1=O)[C@@H](C)O; target = yeast proteasome β5 subunit; assay = inhibitor; test system = purified yeast proteasome; quantity = IC50; value = 0.004 µM
Molecule = CCCCCCCCCCCCCCCCS(=O)(=O)F; target = FAAH; assay = enzyme activity, inhibitor; conditions = added: radiolabelled anandamide substrate; quantity = IC50; value = 0.007 µM
Molecule = O=C(O)COc1ccc(Cl)cc1; target = Torpedo CLC-0 chloride channel; assay = chloride current, inhibitor; conditions = intracellular application, -150 mV; quantity = IC50; value = ~1000 µM
Molecule = CCCCCC(=O)N[C@H](C(=O)N[C@@H](CCS(C)(=O)=O)C(=O)N[C@@H](CC(C)C)C(=O)[C@@]1(C)CO1)C(C)C; target = Saccharomyces cerevisiae 20S proteasome β5; assay = chymotrypsin-like activity; quantity = IC50; value = 0.0026 µM
Molecule = C[C@H](NC(=O)Cc1cc(F)cc(F)c1)C(=O)N[C@H]1N=C(c2ccccc2)c2ccccc2N(C)C1=O; target = amyloid precursor protein; assay = amyloid-beta production, inhibitor; test system = CHO; quantity = IC50; value = 0.0003 µM
Molecule = COc1ccc(/C=C\c2cc(OC)c(OC)c(OC)c2)cc1OP(=O)(O)O; target = tubulin; assay = tubulin assembly, inhibitor; quantity = IC50; value = > 40 µM
Molecule = CCCCC/C=C\C/C=C\C/C=C\C/C=C\CCCC(=O)NCCO; target = MAO-B, pig; assay = inhibitor; test system = brain cortex mitochondria; conditions = added: phenylethylamine; quantity = IC50; value = 1670 µM
Molecule = CN[C@@H]1[C@@H](O)[C@@H](O[C@@H]2[C@@H](O)[C@H](O[C@H]3O[C@H]([C@@H](C)O)[C@@H](O)[C@H](O)[C@H]3N)[C@@H](N)C[C@H]2N)OC[C@]1(C)O; target = rabbit ribosome; assay = translation, inhibitor, refers to: firefly luciferase; test system = rabbit reticulocyte lysate; quantity = IC50; value = 2 ± 0.3 µM
Molecule = C[C@]12CCC(=O)CC1=CC[C@@H]1[C@@H]2CC[C@]2(C)C(=O)CC[C@@H]12; target = ketosteroid isomerase Y30F/Y55F; assay = substrate; conditions = pH 7.0, 3.3 % methanol; quantity = Km; value = 50.2 ± 5.5 µM
Molecule = N#CSCCOc1ccc(Oc2ccccc2)cc1; target = squalene synthase Trypanosoma cruzi; assay = inhibitor; test system = glycosomes of epimastigotes; quantity = IC50; value = 0.088 µM
Molecule = CCN[C@@H](C)Cc1ccc2ccccc2c1; target = serotonin transporter; assay = serotonin uptake, inhibitor; conditions = high internal K+; quantity = IC50; value = 4 µM
Molecule = Cn1c(=O)c2c(ncn2C)n(C)c1=O; target = ATR; quantity = IC50; value = 1100 µM
Molecule = C=CCN(CC=C)CCc1c[nH]c2ccccc12; target = HTR6 (Homo sapiens, UniProt P50406); assay = binding, [3H]LSD displacement; quantity = Ki; value = 1.72 µM
Molecule = CCC[C@H](C(=O)c1ccc2c(c1)OCO2)N1CCCC1; target = dopamine transporter, rat; assay = dopamine uptake, inhibitor; test system = brain synaptosomes; quantity = IC50; value = 0.382 ± 0.053 µM

Excerpt of the above:
Molecule = Oc1cc(Oc2cc(Br)c(Br)cc2Br)c(Br)cc1Br; target = iodothyronine deiodinase 1 (human); assay = enzyme activity, inhibitor; test system = pooled human liver microsomes; quantity = IC50; value = 0.4 µM
Molecule = O=C1C(O)=C([C@H]2CC[C@H](c3ccc(Cl)cc3)CC2)C(=O)c2ccccc21; target = human dihydroorotate dehydrogenase; assay = inhibitor; quantity = IC50; value = 14.5 µM
Molecule = C=CCN(CC=C)CCc1c[nH]c2ccc(OC)cc12; target = Histamine H3 receptor (Cavia porcellus, UniProt Q9JI35); quantity = Ki; value = 1.71 µM
Molecule = O=[P@]1(S)OC[C@H]2O[C@@H](n3cnc4cc(Cl)c(Cl)cc43)[C@H](O)[C@@H]2O1; target = PDE6; assay = cyclic nucleotide hydrolysis, substrate or inhibitor, isothermal titration calorimetry; quantity = Km or Ki; value = 24.5 µM
